Assay results collected from several papers.
Each line is one published result; not all experiments were run side by side. Values joined by “and” are separate records of one study, mostly repeats; a detail may differ. ± gives the spread as reported.

Substance	test	test system	setting	scale	quantity	value
CSCC[C@@H]1NC(=O)[C@H](CC(=O)O)NC(=O)CNC(=O)[C@H](CCCNC(=N)N)NC(=O)[C@H](C)NC(=O)[C@H](CCC(=O)O)NC(=O)[C@H](CCCNC(=N)N)NC(=O)[C@@H]2CSSC[C@@H]3NC(=O)[C@H](CO)NC(=O)[C@H]([C@@H](C)O)NC(=O)[C@@H]4CCCN4C(=O)[C@H](C)NC(=O)[C@H](Cc4c[nH]c5ccccc45)NC(=O)[C@H](CC(=O)O)NC(=O)CNC(=O)[C@H](CCCNC(=N)N)NC(=O)CNC(=O)[C@H](CCC(N)=O)NC(=O)[C@@H]4CCCN4C(=O)[C@@H](NC(=O)CNC(=O)C(C)F)CSSC[C@H](NC(=O)CNC(=O)[C@H](C)NC(=O)[C@H](CC(C)C)NC(=O)[C@H](CSSC[C@@H](C(=O)NCC(N)=O)NC(=O)[C@H]([C@@H](C)O)NC(=O)[C@H](CCCNC(=N)N)NC(=O)[C@@H]4CCCN4C1=O)NC(=O)[C@H](CC(=O)O)NC(=O)[C@H](CO)NC(=O)[C@H](CC(=O)O)NC(=O)[C@H](CCC(N)=O)NC(=O)[C@H](CO)NC3=O)C(=O)N[C@@H](C(C)C)C(=O)N2 (stereo partly shown) [fluorine-18 labelled]	radio-HPLC	mouse serum	1 h, 37 °C		intact fraction	> 95%
CC(=O)N[C@@H](Cc1c[nH]c2ccccc12)C(=O)N[C@H](C(=O)N[C@@H](Cc1c[nH]c2ccccc12)C(=O)N[C@@H](CC(N)=O)C(=O)N1CCC[C@H]1C(=O)N[C@@H](C)C(=O)N[C@H](C(=O)NCC(=O)N[C@@H](CCCCN)C(=O)N[C@@H](Cc1c[nH]c2ccccc12)C(=O)N[C@H](C(=O)N[C@@H](Cc1c[nH]c2ccccc12)C(N)=O)C(C)C)[C@@H](C)O)C(C)C	circular dichroism	phosphate buffer	pH 6.5		Tm	> 100 °C and 101 °C
CC[C@H](C)[C@H](NC(=O)[C@@H](N)CCCNC(=N)N)C(=O)N[C@H](C(=O)N1CCC[C@H]1C(=O)N[C@@H](C)C(N)=O)C(C)C		CD-1 mouse, female, plasma	intravenous, 20 mg/kg daily, day 14, infused over 1 min		Tmax	3 min
CC[C@H](C)[C@H](NC(=O)[C@H](CO)NC(=O)[C@H](C)NC(=O)[C@@H](NC(=O)CNC(=O)[C@H](CO)NC(=O)[C@@H](NC(=O)[C@@H](NC(=O)[C@H](Cc1c[nH]cn1)NC(=O)[C@@H]1CCCN1C(=O)[C@@H](NC(=O)[C@H](CC(C)C)NC(=O)[C@H](CO)NC(=O)[C@H](CC(C)C)NC(=O)[C@@H](N)Cc1ccccc1)[C@@H](C)CC)[C@@H](C)CC)C(C)C)C(C)C)C(=O)N[C@@H](C)C(=O)N[C@@H](CCCCN)C(=O)N[C@@H](Cc1c[nH]cn1)C(=O)N[C@@H](Cc1ccccc1)C(N)=O	UPLC-MS/MS	rat plasma	1.6 µg/mL, 10 days, -20 °C, long-term stability		concentration found	1570 ng/mL
H-HGLASTLTRWAHYNALIRAFGGG-NH2 (C-amide)		rat, brain homogenate	intravenous, 40 µg/100 g, 3.5 h, with: succinate + rotenone, 200 µM ADP		ADP-stimulated respiration	no effect
Cc1cc2c(C(C)C)c(O)c(O)c(C=O)c2c(O)c1-c1c(C)cc2c(C(C)C)c(O)c(O)c(C=O)c2c1O		acetonitrile extract of human plasma	0.112 µg/mL, 24 h, 4 °C, autosampler		remaining concentration	95.6%
CC[C@H](C)[C@H](NC(=O)[C@H](CCCCN)NC(=O)[C@H](CCCCN)NC(=O)[C@H](CC(C)C)NC(=O)[C@@H](NC(=O)[C@H](CCCCN)NC(=O)[C@H](C)NC(=O)[C@H](C)NC(=O)[C@@H](NC(=O)CNC(=O)[C@H](C)NC(=O)[C@@H](NC(=O)[C@@H](NC(=O)[C@@H]1CCCN1C(=O)[C@H](Cc1ccccc1)NC(=O)[C@@H](N)Cc1ccccc1)[C@@H](C)CC)C(C)C)C(C)C)C(C)C)C(=O)N[C@@H](Cc1ccccc1)C(=O)N[C@H]1CSSC[C@@H](C(=O)O)NC(=O)[C@H](CCCCN)NC(=O)[C@H](CCCCN)NC(=O)[C@H](CO)NC(=O)[C@H]([C@@H](C)CC)NC(=O)[C@H]([C@@H](C)O)NC1=O	haemolysis	horse erythrocytes	2 h, 37 °C		HC50	37.6 µM
CCCCCCCCCCCCCC[N+](C)(C)CCCCCCCCCCCCCC	ultrafiltration	human serum			unbound fraction in blood	0.123
O=c1[nH]c(=O)[nH]c(=O)[nH]1	LC-MS/MS	rat, non-pregnant female, serum	oral, 1000 mg/kg/day, 10 days, LOD 0.4 µg/mL		serum concentration	not detected
CC(=O)N[C@H](CCCCNC(=O)C(C)F)C(=O)N[C@@H](CS)C(=O)N[C@@H](CS)C(=O)N[C@@H](CCC(=O)O)C(=O)N[C@@H](Cc1c[nH]cn1)C(=O)N[C@H](Cc1ccccc1)C(=O)N[C@@H](CCCNC(=N)N)C(=O)N[C@@H](Cc1c[nH]c2ccccc12)C(=O)N[C@@H](CS)C(=O)N[C@@H](CCCNC(=N)N)C(=O)N1CCC[C@H]1C(=O)N[C@H](C(N)=O)C(C)C (stereo partly shown) [fluorine-18 labelled]		C57BL/6 mice, male, B16-F10 tumour, blood	intravenous, 4 h		tissue uptake	0.15 ± 0.04 %ID/g
O=c1[nH]c(Cc2ccccn2)nc2c1cnn2C1CCOCC1		healthy men, extensive metabolizers, plasma	oral, 350 mg single dose, tablet, geometric mean		half-life	2.71 h
[123I]c1cncc(OC[C@@H]2CCN2)c1	SPECT	human, occipital lobe	intravenous bolus plus infusion, 7.8 mCi	baseline: tissue over plasma	tissue/plasma ratio	11.4
O=c1c(O[C@@H]2O[C@H](CO)[C@@H](O)[C@H](O)[C@H]2O)c(-c2ccc(O)c(O)c2)oc2cc(O)cc(O)c12		Sprague-Dawley rat	intravenous, 5 mg/kg, 7 days, with: oral ciclosporin 10 mg/kg	baseline: control	ciclosporin Cmax decrease	33.8%
CCNc1nc(Cl)nc(NC(C)C)n1	LC-MS/MS	herbicide solution	2 h, 23 °C, with: 254 nm UV exposure		remaining amount	41.8 ± 13.2%
CCCCCOc1ccc(-c2cc(-c3ccc(C(=O)N[C@H]4C[C@@H](O)[C@@H](O)NC(=O)[C@@H]5[C@@H](O)[C@@H](C)CN5C(=O)[C@H]([C@H](O)CC(N)=O)NC(=O)[C@H]([C@H](O)[C@@H](O)c5ccc(O)c(OS(=O)(=O)O)c5)NC(=O)[C@@H]5C[C@@H](O)CN5C(=O)[C@H]([C@@H](C)O)NC4=O)cc3)no2)cc1		young infants, plasma	intravenous, 7 and 10 mg/kg/day pooled, day 4, median, repeat dosing		Cmax	23400 ng/mL
N[C@H](Cc1ccc(F)cc1)C(=O)O	in situ brain perfusion	CF-1 mice, mdr1a(-/-)	1 µM, 60-180 s		brain uptake clearance Kin	8.9 mL/100 g/min
CCCc1nn(C)c2c(=O)[nH]c(-c3cc(S(=O)(=O)N4CCN(C)CC4)ccc3OCC)nc12		human patients	on drug		serum uric acid	6.84 mg/dL
O[C@H]1CCCN[C@@H]1CCCn1cnc2c(Cl)c(Cl)ccc21		healthy human volunteers, plasma	oral, 200 mg twice daily, day 14, median		Tmax at steady state	2 h
[Cl][Mn][Cl]	cytochrome c release, ELISA	mouse liver mitochondria	30 min	baseline: maximal release by alamethicin	EC20	> 800 µM
Cc1cc(=O)[nH]c2c1NC(=O)c1cccnc1N2C1CC1		olive baboon (Papio anubis), non-pregnant, serum	oral, 10 mg/kg of nevirapine, solution, single dose		AUC(0-8 h)	13.2 ± 9.62 ng·h/mL
CNC(=O)Oc1cc(C)c(SC)c(C)c1		human liver mitochondrial preparation	1 µM, 30 min, 0.5 mg/mL protein		percent metabolized	1.83%
Cn1cc(Nc2nccc(-c3ccc4c(c3)CN(C3COC3)CC[C@H]4NC(=O)c3cn(C(C)(C)C)nn3)n2)cn1		healthy volunteers, whole blood	dose not given, 14 days, multiple ascending dose	baseline: placebo	circulating leukocyte counts	no effect
CCCCCCCCCCCCCN(C)C	liver S9 substrate depletion	rainbow trout liver S9	six-surfactant mixture		in vivo intrinsic clearance	163 mL/h/g liver
CC(C)C(=O)OC[C@H]1O[C@@H](n2ccc(NO)nc2=O)[C@H](O)[C@@H]1O		rat brain dialysate	5 ng/mL, 6 h, 10 °C, autosampler stability, with: NHC 25 ng/mL		remaining compound	99.25 ± 0.36%
CC(C)C[C@@H]1NC(=O)[C@@H]2CSSC[C@@H](C(=O)NCC(N)=O)NC(=O)[C@H](Cc3ccccc3)NC(=O)CNC(=O)[C@H](CC(N)=O)NC(=O)[C@@H]3CCCN3C(=O)CNC(=O)[C@@H]3CSSC[C@H](NC(=O)[C@H](CO)NC(=O)[C@H]([C@@H](C)O)NC(=O)[C@@H]4CCCN4C(=O)[C@H](C)NC(=O)[C@H](Cc4c[nH]c5ccccc45)NC(=O)[C@H](CC(=O)O)NC(=O)CNC(=O)[C@H](CCCNC(=N)N)NC(=O)CNC(=O)[C@H](CCC(N)=O)NC(=O)[C@@H]4CCCN4C(=O)[C@@H](NC(=O)CNC(=O)c4ccc(F)cc4)CSSC[C@H](NC(=O)CNC(=O)[C@H](C)NC1=O)C(=O)N[C@@H](C(C)C)C(=O)N3)C(=O)N[C@@H](CO)C(=O)N[C@@H](CCC(N)=O)C(=O)N[C@@H](CC(=O)O)C(=O)N[C@@H](CO)C(=O)N[C@@H](CC(=O)O)C(=O)N2 [fluorine-18 labelled]	biodistribution	nude mouse, U-87 MG xenograft, tumour	intravenous, 740 kBq, 0.5 h		tumour uptake	1.9 ± 1.15 %ID/g

Some of these lines once more:
Substance	test	test system	setting	scale	quantity	value
O=c1[nH]c(=O)[nH]c(=O)[nH]1	LC-MS/MS	rat, non-pregnant female, serum	oral, 1000 mg/kg/day, 10 days, LOD 0.4 µg/mL		serum concentration	not detected
CC[C@H](C)[C@H](NC(=O)[C@H](CCCCN)NC(=O)[C@H](CCCCN)NC(=O)[C@H](CC(C)C)NC(=O)[C@@H](NC(=O)[C@H](CCCCN)NC(=O)[C@H](C)NC(=O)[C@H](C)NC(=O)[C@@H](NC(=O)CNC(=O)[C@H](C)NC(=O)[C@@H](NC(=O)[C@@H](NC(=O)[C@@H]1CCCN1C(=O)[C@H](Cc1ccccc1)NC(=O)[C@@H](N)Cc1ccccc1)[C@@H](C)CC)C(C)C)C(C)C)C(C)C)C(=O)N[C@@H](Cc1ccccc1)C(=O)N[C@H]1CSSC[C@@H](C(=O)O)NC(=O)[C@H](CCCCN)NC(=O)[C@H](CCCCN)NC(=O)[C@H](CO)NC(=O)[C@H]([C@@H](C)CC)NC(=O)[C@H]([C@@H](C)O)NC1=O	haemolysis	horse erythrocytes	2 h, 37 °C		HC50	37.6 µM
H-HGLASTLTRWAHYNALIRAFGGG-NH2 (C-amide)		rat, brain homogenate	intravenous, 40 µg/100 g, 3.5 h, with: succinate + rotenone, 200 µM ADP		ADP-stimulated respiration	no effect
CC(=O)N[C@H](CCCCNC(=O)C(C)F)C(=O)N[C@@H](CS)C(=O)N[C@@H](CS)C(=O)N[C@@H](CCC(=O)O)C(=O)N[C@@H](Cc1c[nH]cn1)C(=O)N[C@H](Cc1ccccc1)C(=O)N[C@@H](CCCNC(=N)N)C(=O)N[C@@H](Cc1c[nH]c2ccccc12)C(=O)N[C@@H](CS)C(=O)N[C@@H](CCCNC(=N)N)C(=O)N1CCC[C@H]1C(=O)N[C@H](C(N)=O)C(C)C (stereo partly shown) [fluorine-18 labelled]		C57BL/6 mice, male, B16-F10 tumour, blood	intravenous, 4 h		tissue uptake	0.15 ± 0.04 %ID/g
